{"data": "Experimental data of several laboratories", "note": "Numbered parts are unrelated; each lists some results of a single study. Changes are numbered by the printed parent chain."}
{"data": "Block 1", "target": "Sox, HMG box (Pigoraptor chileana)", "technique": "Spec-seq", "molecule type": "double-stranded DNA, one strand shown", "matrix": "in vitro", "concentration": "not given", "setting": "whole probe, mean of replicates", "baseline": "not given", "reading": "lower = stronger binding", "shared flanks, not repeated": "GAGTCGTCTCGTCAGCAC … CCGTAGAGCACTCAGGTC", "Residues (chain)": "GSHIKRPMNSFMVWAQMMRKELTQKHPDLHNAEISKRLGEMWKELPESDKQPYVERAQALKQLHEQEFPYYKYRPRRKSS"}
{"Strand": "GACGGTT", "relative binding energy [ln ratio]": 1.09}
{"Strand": "ACATGTT", "relative binding energy [ln ratio]": -0.748}
{"Strand": "CATATGA", "relative binding energy [ln ratio]": 0.188}
{"Strand": "TCCTGTT", "relative binding energy [ln ratio]": -0.579}
{"Strand": "CATGGGA", "relative binding energy [ln ratio]": 0.531}
{"data": "Block 2", "target": "Interferon regulatory factor 5, full length, phosphomimetic (IRF5, Homo sapiens, UniProt Q13568-2, residues 1-514, K96S/S451D/S453D/S456D/S462D)", "technique": "protein-binding microarray", "molecule type": "double-stranded DNA, one strand shown", "matrix": "in vitro", "concentration": "250 nM", "setting": "60-bp whole probe", "with": "salmon DNA 0.4 mg/ml", "baseline": "random background probes", "reading": "higher = stronger binding", "shared flanks, not repeated": "GCCTAGCAC … GTCTTGATTCGCTTGACGCTGCTG"}
{"Strand": "GACGGTGTCGGGTTTCGGGACGTGCTA", "log fluorescence [z-score]": 1.53}
{"Strand": "TTGGGACTGGGGTATCGGTTAGTGCTA", "log fluorescence [z-score]": 2.04}
{"Strand": "TTAGGTTTCGGTATCAGTTAGTGCTAG", "log fluorescence [z-score]": 10.3}
{"Strand": "GGCGGTCTCGGTTTCGGGACGTGCTAG", "log fluorescence [z-score]": 2.73}
{"Strand": "ACCAAAATCAAGTCTGGGCTAGTGCTA", "log fluorescence [z-score]": 0.137}
{"Strand": "TCACTTTCCTTCTTGAAACTGTGCTAG", "log fluorescence [z-score]": 2.76}
{"Strand": "GACGGACTGGGACTGGGGAAGTGCTAG", "log fluorescence [z-score]": -0.852}
{"Strand": "TCATTTTTATTTATAAAACTGTGCTAG", "log fluorescence [z-score]": 1.11}
{"data": "Block 3", "target": "Probable WRKY transcription factor 33, C-terminal DNA-binding domain (WRKY33, Arabidopsis thaliana, UniProt Q8S8P5, residues 346-449)", "technique": "DNA-protein interaction ELISA", "molecule type": "double-stranded DNA, one strand shown", "matrix": "in vitro, bacterial lysate", "concentration": "not given", "setting": "whole dsDNA probe, crude lysate protein", "baseline": "highest signal in screen", "reading": "higher = stronger binding", "Target sequence (chain)": "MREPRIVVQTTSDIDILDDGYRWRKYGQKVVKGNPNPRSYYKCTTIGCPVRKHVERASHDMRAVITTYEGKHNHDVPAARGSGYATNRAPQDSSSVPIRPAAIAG"}
{"Strand": "AAAAAACATTCCTAGTTCATGTTACTAAAA", "relative absorbance": "56.2 % of maximum"}
{"Strand": "AAAAAATATGGCACTCGCCGCACATCAAAA", "relative absorbance": "43 % of maximum"}
{"Strand": "AAAAAATGGTCGATCCGCATGCAGTTAAAA", "relative absorbance": "38.8 % of maximum"}
{"Strand": "AAAAAAACGCTATATATTGGTGCTAGAAAA", "relative absorbance": "47.8 % of maximum"}
{"Strand": "AAAAAAGCTTTCAACATCTGCGTCCAAAAA", "relative absorbance": "34.6 % of maximum"}
{"Strand": "AAAAAACCGAGTGTTGCCAGTTGCAGAAAA", "relative absorbance": "35.1 % of maximum"}
{"Strand": "AAAAAACATGTCGCACCTGTACTAACAAAA", "relative absorbance": "43 % of maximum"}
{"Strand": "AAAAAAATGATTTGCAGATCTCCGAGAAAA", "relative absorbance": "48.4 % of maximum"}
{"data": "Mixed results", "starting sequence": "viral docking peptide; KGVKRKLFAEDSS; partner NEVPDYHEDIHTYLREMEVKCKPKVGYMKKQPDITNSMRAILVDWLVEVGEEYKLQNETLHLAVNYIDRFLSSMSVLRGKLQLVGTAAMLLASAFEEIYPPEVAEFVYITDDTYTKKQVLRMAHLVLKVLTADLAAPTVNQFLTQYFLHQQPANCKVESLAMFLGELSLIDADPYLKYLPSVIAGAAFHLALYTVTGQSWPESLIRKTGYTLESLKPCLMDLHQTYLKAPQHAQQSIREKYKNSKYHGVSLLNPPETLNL"}
{"Substitution": "K4H", "target": "CCNA2, cyclin fold, Cln2 fusion (human)", "test": "yeast growth competition, sequencing", "system": "yeast", "setting": "strong parent motif", "how to read": "baseline: not given, higher = stronger binding", "endpoint": "normalised enrichment score", "result": 4.91}
{"note": "Some of these lines once more (mixed results):"}
{"Substitution": "K4H", "target": "CCNA2, cyclin fold, Cln2 fusion (human)", "test": "yeast growth competition, sequencing", "system": "yeast", "setting": "strong parent motif", "how to read": "baseline: not given, higher = stronger binding", "endpoint": "normalised enrichment score", "result": 4.91}
